# Published values gathered from unrelated publications.
# “And” joins repeats or separate records; there may be more than shown. ± gives the spread as reported.
SMILES,assay,test system,conditions,how to read,measurement,result
N#Cc1ccn2c(-c3ccncc3)c(-c3ccc(F)cc3)nc2c1,"kinase binding, competitor, MIB/MS competition, item: SAK1",Candida albicans cell lysate,1 µM,baseline: DMSO,log2 fold change,0.245
CCCCCN1C[C@H](O)[C@@H](O)[C@H](O)[C@@H]1CO,,"Hexb-/- mouse, cerebral cortex","300 mg/kg/day, unit not given",baseline: 30 mg/kg/day,increased sphingolipid species,3
Cc1cc(Nc2ccc(S(F)(F)(F)(F)F)cc2)n2nc(C(C)(F)F)nc2n1,item: dihydroorotate,"female CD-1 mice, pooled urine","oral, 300 mg/kg daily, 8-24 h after dose 1",,DHO concentration,5.22 ± 0.764 µM
O=C(O)CNC(=O)Cc1ccccc1,,"ventricular cardiomyocytes, C57BL/6 mouse","dose not given, 0.752 s",,sarcomere length,1.72 µm
NC(=O)c1cnc2[nH]ccc2c1N[C@@H]1[C@@H]2CC3C[C@H]1C[C@@](O)(C3)C2,flow cytometry,"Japanese healthy men, blood","oral, 10 mg twice daily, 72 h after day 7 dose",baseline: baseline,CD4+ memory T-cell change,0.02%
N#Cc1ccc2c(-c3ccncc3)c(-c3ccc(F)cc3)nn2c1,"kinase binding, competitor, MIB/MS competition, item: PBS2",Candida albicans cell lysate,1 µM,baseline: DMSO,log2 fold change,0.0176
O=C(/C=C/c1cc(F)cc(F)c1)c1ccc[nH]1,ZEBRA device,"zc4h2 knockout zebrafish larvae, 5 dpf","up to 10 µM, 2 h",baseline: control,jaw movement frequency,decreased
O=C(O)C1=CC(=C(c2ccc(O)c(C(=O)O)c2)c2ccc(O)c(C(=O)O)c2)C=CC1=O,"immunohistochemistry, item: F4/80","C57BL/6J mouse MC-38 tumour, tumour necrotic areas","peritumoral, dose not given",baseline: vehicle,macrophage signal,decreased
COc1ccc(-c2cncc(N[C@@H](C)c3cccc(NC(=O)c4cncc(C)c4)c3)n2)cc1OC,item: rno-miR-194-5p,"rat SU5416/hypoxia model, lung",dose not given,baseline: SU5416/hypoxia vehicle,fold change,0.946
COc1nnc2ccc(N3CCC(c4ccc(OCCN5CCN(C)C(=O)[C@H]5C)cc4)CC3)nn12,,human patients,"10 mg once daily, above baseline variability",,time above HEXIM1 threshold,5.19 h
C[C@@H](O)CCOC(=O)C[C@@H](C)O,,human,"oral drink, dose not given, 180 min post dose, median, all participants",,plasma NEFA,0.1 mM
C[C@H](Oc1ccc(Br)cc1-c1ccon1)C(=O)O,relative refractory period,"human, tibialis anterior muscle","50 mg, SAD",,difference from placebo,0.131 ms
Cc1n[nH]c2ccc(-c3cc(OC[C@@H](N)Cc4ccccc4)cnc3-c3ccoc3)cc12,"kinase binding, competitor, MIB/MS competition, item: SAK1",Candida albicans cell lysate,1 µM,baseline: DMSO,log2 fold change,-0.223
N#CCC1CCN(c2nc(Nc3ccc(N4CCC(O)CC4)cc3)c3c(=O)[nH]ncc3n2)CC1,"Olink multiplex, item: CDCP1","human, serum","20 mg, day 29",baseline: baseline,fold change from baseline,-1.1
CCN(CC)CCNC(=O)c1cc(S(C)(=O)=O)cnc1OC.Cl,catalepsy bar test,female CD-1 mice,"intraperitoneal, 200 mg/kg, 90 min after dosing",,time on bar,0.93 s and 1.19 s and 1.82 s and 4.01 s and 1.09 s
O=C(OC(C(F)(F)F)C(F)(F)F)N1CCN(Cc2cccc(Oc3ccccc3)c2)CC1,PET blocking study,"rhesus monkey, brain CB","0.3 mg/kg, compound pretreatment, added: [18F]T-401 tracer",,k3,0.804 min⁻¹
CCOc1c([C@H](C)n2nc(C)c3c(N)ncnc32)cc(Cl)c(F)c1[C@@H]1CNC(=O)C1,"Olink proximity extension proteomics, item: XCL1","human FL or MZL patients, plasma","dose not given, week 8",baseline: baseline,plasma protein level change,-34%
C[C@@H](NC(=O)N1C(=O)[C@H](Cc2ccnc(N)c2)[C@H]1C(=O)O)C1CCCCC1,,human,"iv infusion, 1.5 mg/kg/h, 24 h, unit not given",baseline: baseline,PT AUEC,148
CN1CC(Oc2cnc(C#N)cc2-c2ccn3nc(NC(=O)C4CC4)cc3c2)C1,"IL-10 release, inducer","C57BL/6 mouse, LPS challenge, plasma","oral, 1 and 80 mg/kg, dosed 1 h before LPS",,EC50,1140 nM
CN(C)C(=N)N=C(N)N,,gestational diabetes women,"dose not given, treated arm",,newborn weight,2.9 ± 0.5 kg
CN(CCOc1ccc(CC2SC(=O)NC2=O)cc1)c1ccccn1 (racemic),indirect calorimetry,lean mice,"dose not given, average over 72 h, end of treatment",,VO2,75.6 ± 5.16 mL/min/kg
CCO[C@H]1CCN(Cc2c(OC)cc(C)c3[nH]ccc23)[C@H](c2ccc(C(=O)O)cc2)C1,item: PNH-type erythrocytes,"PNH patients, blood","50 mg/200 mg, week 8, mean",,PNH red cell clone size,85.1%
O=C(COc1ccc(Cl)cc1)NC12CC(c3nnc([C@H]4C[C@@H](OC(F)(F)F)C4)o3)(C1)C2,,"healthy human, PBMC","oral, 400 mg single dose, day 2, 24 h post-dose, median, added: sodium arsenite ex vivo",baseline: baseline,ATF4 protein change,-58.8%
CC(C)NCC(O)c1ccc(O)c(O)c1 (stereo not shown),,"ventricular cardiomyocytes, C57BL/6 mouse","dose not given, 0.412 s",,sarcomere length,1.72 µm
Cn1cc(Nc2nc(N)nc(-c3cccc(-n4ccc5cc(C6CC6)cc(F)c5c4=O)c3CO)n2)cn1,"CD63 upregulation, anti-IgE-induced","human, multiple ascending dose, whole blood basophils ex vivo","150 mg twice daily, day 14, 8 h",,inhibition,91%
C=CCn1c(=O)c2cnc(Nc3ccc(N4CCN(C)CC4)cc3)nc2n1-c1ccc2c(n1)[C@@](O)(CC)CC2,,"A-427, NOD/SCID mice, xenograft","oral, 210 mg/kg, intermittent, day 51",baseline: vehicle,tumour volume difference,-341 ± 4.9 mm3
CC(C)[C@H](C(=O)Nc1ccc(C(=O)NO)cc1)c1ccccc1,volumetric MRI,"human, left IAC schwannoma","dose not given, end of treatment, day 57",,annual tumour growth rate,92.8 %/year
COc1cc(Nc2ncc3c(n2)-c2ccc(Cl)cc2C(c2c(F)cccc2OC)=NC3)ccc1C(=O)O,,"mice, NB-1382 neuroblastoma xenograft",20.8 mg/kg,direction not given,median response score,2
OC(CCN1CCCCC1)(c1ccccc1)C1CC2C=CC1C2 (stereo not shown),resting-state EEG,healthy elderly humans,"oral, 4 mg, eyes closed, LS mean",,"beta power, EEG, Fz Cz",6 µV²
COc1nc(-c2cc(C)c(N[C@@H](C)c3cc(F)cc(F)c3)nn2)ccc1-n1cnc(C)c1,item: Aβ40,"rat Sprague-Dawley male, plasma","oral, 5 mg/kg daily for 9 days, 4 h after dose",baseline: vehicle,change in level,57%
C[C@H]1C[C@H]2CSC(N)=N[C@@]2(c2nc(NC(=O)c3ccc(OC(F)F)cn3)cs2)CO1,item: Aβ1-40,"healthy adults, plasma","5 mg once daily, day 4",baseline: placebo,percent change from baseline,-53.7%
O=P(O)(O)C(Cl)(Cl)P(=O)(O)O,"immunostaining, item: F4/80","mouse, sham, meningeal perivascular",23000 µg/mL,,macrophage density,6.42 cells/mm²
CSCCNc1nc(SCCC(F)(F)F)nc2c1ncn2[C@@H]1O[C@H](COP(=O)(O)OP(=O)(O)C(Cl)(Cl)P(=O)(O)O)[C@@H](O)[C@H]1O,"platelet aggregation, light transmission aggregometry","human patients, platelet-rich plasma","dose not given, 4 to 6 h, inhibition threshold 90%, added: TRAP 5 µM",,patients with inhibition above threshold,8.1%
N#Cc1ccc2c(c1)[C@H]1CCCN(C(=O)c3ccc4[nH]cnc4c3)[C@H]1C2,item: diastolic blood pressure,human,"80 mg once daily, day 28, adjusted mean",baseline: placebo,change from baseline,-1.5 mmHg
CN[C@@H]1COc2c(S(=O)(=O)NC(=O)Nc3c4c(cc5c3CCC5)CCC4)cnn2C1,item: IL-18,"human participants, whole blood ex vivo","1800 mg single dose, 48 h, IL-18, circulating, adjusted for, added: LPS/ATP",baseline: baseline,inhibition,69.6%
Cc1oncc1C(=O)Nc1ccc(C(F)(F)F)cc1,item: dihydroorotate,"female CD-1 mice, pooled urine","oral, 10 mg/kg daily, 8-24 h after dose 3, 10-day dosing",,DHO concentration,325 ± 4.96 µM
N#Cc1ccc2c(c1)[C@H]1CCCN(C(=O)c3ccc4[nH]cnc4c3)[C@H]1C2,,"human, plasma","80 mg, day 15, 360 h",baseline: placebo and baseline,change in HOMA-IR,-21.2%
COc1ncc(-c2nc3c(n2C(C)C)[C@H](c2ccc(Cl)cc2)N(c2cc(Cl)cn(C)c2=O)C3=O)c(OC)n1,International Working Group criteria,human acute myeloid leukemia patients,"oral, 250 mg, response CRi, high-dose, recommended dose for expansion",,best overall response,13.3%
CC(=O)NCC(=O)NCC(=O)N[C@H](C(=O)N[C@@H](Cc1ccc(O)cc1)C(=O)N[C@@H](CO)C(=O)N[C@H]1CSSC[C@@H](C(=O)N[C@@H](CCCNC(=N)N)C(=O)N2CCC[C@H]2C(=O)N[C@@H](CCC(N)=O)C(=O)N[C@@H](CCCNC(=N)N)C(=O)NCC(=O)NCCC(=O)N[C@@H](CCCCNC(=O)CN(CC(=O)NCCCC[C@H](NC(=O)CCNC(=O)CNC(=O)[C@H](CCCNC(=N)N)NC(=O)[C@H](CCC(N)=O)NC(=O)[C@@H]2CCCN2C(=O)[C@H](CCCNC(=N)N)NC(=O)[C@@H]2CSSC[C@H](NC(=O)[C@H](CO)NC(=O)[C@H](Cc3ccc(O)cc3)NC(=O)[C@@H](NC(=O)CNC(=O)CNC(C)=O)[C@@H](C)O)C(=O)N[C@@H](Cc3c[nH]cn3)C(=O)N[C@@H](Cc3ccccc3)C(=O)NCC(=O)N[C@@H](C)C(=O)N[C@@H](CC(C)C)C(=O)N[C@@H]([C@@H](C)O)C(=O)N[C@@H](Cc3c[nH]c4ccccc34)C(=O)N[C@@H](C(C)C)C(=O)N2)C(N)=O)C(=O)CCN)C(N)=O)NC(=O)[C@H](C(C)C)NC(=O)[C@H](Cc2c[nH]c3ccccc23)NC(=O)[C@H]([C@@H](C)O)NC(=O)[C@H](CC(C)C)NC(=O)[C@H](C)NC(=O)CNC(=O)[C@H](Cc2ccccc2)NC(=O)[C@H](Cc2c[nH]cn2)NC1=O)[C@@H](C)O,,healthy BALB/c mice,"subcutaneous, 0.08 mg/kg, 6 d, single dose",,haematocrit,49.6%
O=C1Nc2cc3[nH]nc(-c4ccncc4)c3cc2CN1Cc1ccccc1,RECIST v1.1,"human, relapsed or refractory advanced solid tumours","intravenous, 11.3 mg/kg",,"partial response, best response",0%
COc1ccccc1[C@H](Cn1c(=O)n(C(C)(C)C(=O)O)c(=O)c2c(C)c(-c3ncco3)sc21)OC1CCOCC1,,human,"50 mg, post-treatment",,blood VLDL level,13 ± 13.4 mg/dL
Cn1cc(Nc2nccc(-c3ccc4c(c3)CN(C3COC3)CC[C@H]4NC(=O)c3cn(C(C)(C)C)nn3)n2)cn1,item: D-myo-inositol-5-phosphate Metabolism,"splenic B cells, mouse","in vivo, 30 mg/kg, IgD-activated B cells","baseline: vehicle, positive = activation",pathway activation z-score,1.15
CC1(C)CCC(CN2CCN(c3ccc(C(=O)NS(=O)(=O)c4ccc(NCC5CCOCC5)c([N+](=O)[O-])c4)c(Oc4cnc5[nH]ccc5c4)c3)CC2)=C(c2ccc(Cl)cc2)C1,"cell kill, PI exclusion flow cytometry","CD3+ nodal neoplastic T cells, human",24 h,,EC50,8 nM
